Measurements of several laboratories.
Compare with care: the assays were run in different laboratories. Values joined by “and” are separate records of one study, mostly repeats; a detail may differ. ± gives the spread as reported.

| Compound | target or system | test | test system | conditions | how to read | measurement | result |
| --- | --- | --- | --- | --- | --- | --- | --- |
| COc1ccccc1-c1n[nH]c2nc(N[C@H]3CC[C@H](NS(=O)(=O)CC(C)C)CC3)ncc12 | – | bead binding, competition bead pull-down, refers to: LMJF.29.0850 | Leishmania donovani extract | 10 µM | reference: vehicle | relative abundance | 1.29 |
| CC(C)C[C@@H]1NC(=O)[C@@H](Cc2c[nH]c3ccccc23)NC(=O)[C@H](CCCNC(=N)N)NC(=O)[C@@H](CCC(=O)O)NC(=O)[C@H](CCC(N)=O)NC(=O)[C@@H](CCC(=O)O)NC(=O)[C@H](CCCNC(=N)N)NC(=O)[C@@H](Cc2c[nH]c3ccccc23)NC1=O | – | refers to: IL4 | LDLr-/- mouse on Western diet, liver | dose not given, 4 weeks | – | cytokine level | 13 ± 8.4 pg/g tissue |
| CCOC(=O)C1(Cc2cc(F)c(F)c(F)c2)Oc2cc(F)ccc2N(Cc2cc(F)c(F)c(F)c2)C1=O (stereo not drawn) | Arabidopsis thaliana | stem length, petri dish germination | Col-0, 1/2 MS medium | 50 µg/mL, 7 days, 22 °C, dark | – | inhibition | 48% |
| Cc1cc(C(=O)Nc2nc3cccc(C)c3n2[C@H]2CCCCN(C(=O)/C=C/CN(C)C)C2)ccn1 | Trypanosoma brucei | cell growth, Alamar Blue | 2T1 overexpressing Tb927.8.7220 | – | reference: parental 2T1 | EC50 fold shift | 0.65 fold and 1.52 fold |
| O=C1NC2(CC2)COc2ncc(F)cc2[C@H]2COCCN2c2ccn3ncc1c3n2 | – | – | Sprague-Dawley rat, female, heart | oral, 10 mg/kg/day, 4 weeks, end of treatment | – | organ-to-body weight ratio | 0.391 ± 0.034% |
| CC(C)(C)C(=O)OCOP(=O)(OCOC(=O)C(C)(C)C)C1CCCN(O)C1=O (stereo not drawn) | RPMI-8226 | – | – | – | – | CC50 | > 100 µM |
| COc1ccccc1-c1n[nH]c2nc(NC3CCN(C(=O)Cc4ccc(F)cc4F)CC3)ncc12 | – | bead binding, competition bead pull-down, refers to: LINJ.23.0050 | Leishmania donovani axenic amastigote extract | 10 µM | reference: vehicle | relative abundance | 0.95 |
| CC(C)CC(C(=O)N1CC2(CC1C#N)C(=O)Nc1ccccc12)N(C)C(=O)c1cc2c(F)cc(F)c(F)c2[nH]1 (stereo not drawn) | Human coronavirus 229E | cytopathic effect | MRC5 | 13.54 nM | – | inhibition | 100% |
| Cc1ccc(NS(=O)(=O)c2c(C(=O)N3CCCCCC3)c(C)n(C)c2C)c(Cl)c1 | Fowlpox virus | viral infection | CEF | 0.137 µM | reference: untreated | infection | 84.6% and 109% |
